Measurements from different studies.
Compare with care: the assays were run in different laboratories. Values joined by “and” are separate records of one study, mostly repeats; a detail may differ. ± gives the spread as reported.

CCc1c(-c2ccccc2)c(-c2ccccc2)nn1-c1ccccc1-c1cccc(OCC(=O)O)c1  AUC(0-t) (Sprague-Dawley rat; oral, dose not given): 5820 ng·h/mL and 4940 ng·h/mL
O=C1C[C@@H](c2ccc(O)cc2)Oc2cc(O)cc(O)c21  AUC(0-t) (Sprague-Dawley rat, plasma; intravenous bolus, 1 mg/kg): 25300 ± 2190 ng·h/mL
CN1CCC[C@H](CN2c3ccccc3Sc3ccccc32)C1.Cl  AUC(0-t) (Wistar rat female, plasma; oral, 16 mg/kg): 4090 ng·h/mL
C=CC(=O)N1CCC(Oc2cc3c(Nc4ccc(Cl)c(Cl)c4F)ncnc3cc2OC)CC1  AUC(0-t) (male Sprague-Dawley rats, plasma; oral, 2 mg/kg, added: schisandrin A pretreatment 20 mg/kg daily 1 week): 6780 ± 895 ng·h/mL
C1=C/COCc2cc(ccc2OCCN2CCCC2)Nc2nccc(n2)-c2cccc(c2)COC/1  AUC(0-t) (LC-MS/MS; Sprague-Dawley rat, male, plasma; oral, 36 mg/kg, added: isavuconazole 20 mg/kg oral): 10800 ± 8160 ng·h/mL
Cc1ccc2c(c1)C(=O)[C@]1(O)CCN(c3ccc4nc(C)ccc4c3)C1=N2.Cl  AUC(0-t) (rat; subcutaneous, 30 mg/kg): 15.4 µM·h
COc1cccc(-c2n[nH]c(SCc3ccccn3)n2)c1OC  AUC(0-t) (Sprague-Dawley rats, male, plasma; intravenous, 1.0 mg/kg, single dose): 2790 ng·h/mL
Cc1cccc(CNC(=O)c2cn(CCNC(=O)c3ccccc3Sc3c([N+](=O)[O-])ncn3C)c3cc4c(cc3c2=O)OC(F)(F)O4)n1  AUC(0-t) (Sprague-Dawley rat, male, plasma; intravenous, 20 mg/kg of parent drug): 1640 ± 60.6 ng·h/mL
O=C1c2ccncc2C(=O)c2c1[nH]c1ccccc21  AUC(0-t) (Sprague-Dawley rat male, plasma; intravenous, 1 mg/kg): 0.552 ± 0.223 µM·h
CCc1c2c(nc3ccc(OC(=O)N4CCC(N5CCCCC5)CC4)cc13)-c1cc3c(c(=O)n1C2)COC(=O)[C@]3(O)CC  AUC(0-t) (Sprague-Dawley rats, plasma; iv, 10 mg/kg): 4.11 ± 1.21 µM·h
CC(=O)CC(c1ccccc1)c1c(O)c2ccccc2oc1=O (stereo not drawn)  AUC(0-t) (Sprague-Dawley rats, male, plasma; oral, 0.3 mg/kg/day, 1 week, without PNS): 29300 ± 2210 ng·h/mL
Cc1cccc(CNC(=O)c2cn(CCNC(=O)c3ccccc3S)c3cc4c(cc3c2=O)OC(F)(F)O4)n1  AUC(0-t) (Sprague-Dawley rat, male, whole blood; intravenous, 5 mg/kg of parent compound): 3040 ± 350 ng·h/mL
Cc1ccc(S(=O)(=O)n2cc3c4c2C(=O)C(NCc2ccc(Cl)cc2)=CC4=NCC3)cc1  AUC(0-t) (Sprague-Dawley rat, plasma; intravenous, 5 mg/kg, individual rat): 1870 ng·h/mL and 696 ng·h/mL and 1580 ng·h/mL
CSc1ccccc1C(=O)NCCn1cc(C(=O)NCc2cccc(C)n2)c(=O)c2cc3c(cc21)OC(F)(F)O3  AUC(0-t) (Sprague-Dawley rat, male, plasma; intravenous, 5 mg/kg of parent drug): 106 ± 7.7 ng·h/mL
C=CC(=O)N1CCC([C@@H]2CCNc3c(C(N)=O)c(-c4ccc(Oc5ccccc5)cc4)nn32)CC1  AUC(0-t) (Sprague-Dawley rats, plasma; oral, 16 mg/kg, added: posaconazole 40 mg/kg): 2880 ± 581 ng·h/mL

Excerpt of the above:
CSc1ccccc1C(=O)NCCn1cc(C(=O)NCc2cccc(C)n2)c(=O)c2cc3c(cc21)OC(F)(F)O3  AUC(0-t) (Sprague-Dawley rat, male, plasma; intravenous, 5 mg/kg of parent drug): 106 ± 7.7 ng·h/mL
C=CC(=O)N1CCC([C@@H]2CCNc3c(C(N)=O)c(-c4ccc(Oc5ccccc5)cc4)nn32)CC1  AUC(0-t) (Sprague-Dawley rats, plasma; oral, 16 mg/kg, added: posaconazole 40 mg/kg): 2880 ± 581 ng·h/mL
